Published values gathered from unrelated publications.
Parts stem from different laboratories: compare values within a part only.

Study 1 — technique: RNA Bind-n-Seq; molecule type: RNA; matrix: in vitro; tested at: 200 nM; notes: whole 134-nt RNA, ends assumed; together with: 150 mM LiCl; reference: input library; reading: higher = stronger binding; library: 7-deaza-guanosine replaces G
Target: Ras GTPase-activating protein-binding protein 1, full length (G3BP1, Homo sapiens, UniProt Q13283)
Chain of UniProt Q13283 (whole entry, looked up): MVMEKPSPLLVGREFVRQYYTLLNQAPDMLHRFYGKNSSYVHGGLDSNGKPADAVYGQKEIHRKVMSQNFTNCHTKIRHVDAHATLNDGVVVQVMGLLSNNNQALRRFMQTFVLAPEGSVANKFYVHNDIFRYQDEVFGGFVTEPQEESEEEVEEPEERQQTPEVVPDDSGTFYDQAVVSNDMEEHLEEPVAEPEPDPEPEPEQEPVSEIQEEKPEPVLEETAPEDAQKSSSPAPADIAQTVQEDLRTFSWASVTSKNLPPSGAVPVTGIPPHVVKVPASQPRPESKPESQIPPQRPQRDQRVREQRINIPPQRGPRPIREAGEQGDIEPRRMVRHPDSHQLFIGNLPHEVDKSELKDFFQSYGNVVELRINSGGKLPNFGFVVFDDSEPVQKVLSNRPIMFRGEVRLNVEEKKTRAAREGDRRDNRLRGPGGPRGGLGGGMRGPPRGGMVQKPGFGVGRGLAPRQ
Constant ends, left off below: GGGAGUUCUACAGUCCGACGAUC … UGGAAUUCUCGGGUGUCAAGG
Oligonucleotide | log2 enrichment
CAAGUCCUGUGCUACACAUCGUAUGUACCGAAUCGGAAAGGAAAAAGGAAAAAGGAAAGUAUUAUGUUACGCCGUUCGGAUCUGCACUUC | -0.59
GCAGGAAGUAAAAACAAAUGGAAAUGCUUCGGAUAGUGGCAGGGGUGGAAAUUGCUAAGGAAAGGGUGGGAUGGGAGUGGGUAAAGAGUU | 0.299
AGUCCUGUGCUACACAUCGUAUGUACCGAAUCGGUUUUUUUGGUUUUUUUGGAAAGGAAAGUAUUAUGUUACGCCGUUCGGAUCUGCACU | -1.31
CAAGUCCUGUGCUACACAUCGUAUGUACCGAAUCGGUUUGGGGUUUGGUUUGGGGAAAGUAUUAUGUUACGCCGUUCGGAUCUGCACUUC | -0.703
UCCUCAAGUCCUGUGCUACACAUCGUAUGUACCGAAUCGGGGUGGUGGUGGAAAGUAUUAUGUUACGCCGUUCGGAUCUGCACUUCCAGC | -0.749
ACCAUGCAGGUGGGCAUCUUUGGGAAGUGGGGCAAGGGGGGGAUAGGGACGGGGGUAACACUUUGGGAACAGGUGGUCCCAGGUCGUUUC | 0.21
UAUCCCCUAUGAGGCACCACGUAAGACCUCCUGCCCUUAGCUCUCUUGCUCACCACCCAAGAACCUCAGGACAGAAGCGAGAGCCCAUUG | 1.31
UGGGAGGUGGAAUUUGUUUAUUUUUUUAGCUCAUUUCCAGGGGUGGGAAUUUUUUUUUAAUAUGUGUCAUGAAUAAAGUUGUUUUUGAAA | 0.477
CCUGUGCUACACAUCGUAUGUACCGAAUCGGAAAAAAAGGAAAAAAAGGAAAAAAAGGGGAAAGUAUUAUGUUACGCCGUUCGGAUCUGC | -0.442
UGGGAGGUGGAUUUUGUUUAUUUUUUUAGCUCAUUUCCAGGGGUGGGAAUUUUUUUUUAAUAUGUGUCAUUAAUAAAGUUGUUUUUGAAA | -0.286
UGGCCCUGGUGGCAUGCGGGGAGGAAGAGGUGGCCUCAUGGAUCGUGGUGGUCCCGUUGGAAUGUUCAGAGGUGGCCGUGGUGGAGACAG | 0.479

Study 2 — technique: RNA Bind-n-Seq; molecule type: RNA; matrix: in vitro; tested at: 365 nM; reference: no-protein control; reading: higher = stronger binding
Target: RNA binding protein fox-1 homolog 2, RRM domain, GST-SBP tag (RBFOX2, Homo sapiens, UniProt O43251-10, residues 100-194)
Notes: natural RNA segment, single round, ends assumed
Constant ends, left off below: GGGAGUUCUACAGUCCGACGAUC … UGGAAUUCUCGGGUGCCAA
Target sequence (chain): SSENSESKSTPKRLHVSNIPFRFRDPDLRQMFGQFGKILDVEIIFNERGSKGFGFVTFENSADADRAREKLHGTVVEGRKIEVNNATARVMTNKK
Oligonucleotide | RBNS enrichment (R)
AUCUUUCUCCCUCAACUGAAGGGGUGCACCCACCUGUUUUCUGAAACACACGAGCAAACCCAGAGGUGGAUGUUAUGAACAGCUGUGUCUGCCAAACACAUUUACCCUUU | 0.325
CCUUAAAAGGGUGAGAAGGGCGCGUAGAUAGUUACAGAGUCUCAGCUGCUGACGUUCUGAGCCAGGCAAGUGCACGGGGCUGUUGGAUGGCCAGUGGGGAGCUGGAAAAA | 1.15
GUUAAUAAACUUUACACAGUAUAUAGACACAUUUUCUGCAAUGUACUGACAUCAGUGUCCAAUAUAUGGUAUAUUUUUAUAAUAUAAUAUCCUAGUAUGAUUGGUUAUAU | 0.866
UAAUUAUUGCCCAGUUAUUCUUAAGUAAGGACAAAGAAGGAAAUAUCAUCGUAUUUCUUUUUUUUAAUAAGGAAAAAAUAAUAUCCAUACAGUCAAGAUACAUAGUAAAU | 0.483
AUUUUACAAUAUUUUUUCUUUACAAUAUGUUCUGUAGUAUGUUUACCCUCUUUAUGAAGUGAAUUACCAAUGCUUUGAAUAAUGUUCACUUAUACAUUCCUGUACAGAAA | 1.48
UCUUGGGCAGACCAAACUCAGGCCUGAUGCAACCAAGUUGCCCCUGGGUCCUAGCGACACCUCCUCACCCAAAUUUUCCUGUCUUCAAUAUCCUCAACAGACAAAAGAAG | 0.196
UUCUACAUUGUGACUUGUUUUACUUUAAAAGGGGAUAAACAAAUUUAUAGCAACUAUAAAGUAUCAAUAAUUUUAAAUACUCAUCUCUCUUUUACUAAGAAGGGAUUUUU | 0.573
AAAAUCAAGUGUUAGGAAAUUUCAUGGUCUUACCUACAAUAACUUUUAUUUUGGAAUUGAACUAUUAUUAAAUUGUAUCUAAUCCUGGAUUACAGUUUAAUUAAUUAUUC | 0.454
CACCCCCUGCUGGGUCUCCUGCAUUCCACGGAGCCCCUGCUGCCAGGGCGGUGUCUGAGCCUGCCGGCGCCACCUGGGCCCCGGCCCUUGAGGUACUCCCUGAGCAGGAC | 0.332
UUCCUCCAAGCCACAUGAGGACUCUGGCACCCACCCACAAAGCAAGACCUGUAUUUAUAAGCCGAGGGCUCAGGGAGCCUAACUGCGGGACCCGUCAGGGCCCCGUGACC | 0.351
AUCACUGGAGCACCAGGCACGAACCCACCUGCUGAGAGACCCAAGGAGGAAAAACAGACAAAAACAGCCUCACAGAAGAAUAUGACAGCUGUCCCUGUCACCAAGCUCAC | 0.434
CAUCCUUUACGUGUUUAAAAAAAAGCAUAAAAACAUUUUAAAAACAUAGAAAAAUUCAGCAAACCAUUUUUAAAGUAGAAGAGGGUUUUAGGUAGAAAAACAUAUUCUUG | 0.726

Study 3 — technique: protein binding microarray; molecule type: double-stranded DNA, one strand shown; matrix: in vitro; tested at: not given; reference: not given; reading: higher = stronger binding
Target: Histone acetyltransferase KAT6A, winged helix 1, GST fusion (KAT6A, Homo sapiens, UniProt Q92794, residues 1-85)
Notes: 8-mer, flanks averaged, mean of 2 arrays, mostly near background
Residues (chain): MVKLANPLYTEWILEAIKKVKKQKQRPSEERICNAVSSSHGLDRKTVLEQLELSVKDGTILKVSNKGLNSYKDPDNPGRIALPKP
Oligonucleotide | E-score
CATGGGGG | -0.224
ATCCCTCA | -0.0317
CAGTTGGC | -0.0695
AGGCTTTG | -0.085
CAAAGTAG | -0.256
TATATACA | -0.264
ACGTCCGG | 0.135
CCTGAAAA | 0.000715
TGAGCAAA | -0.178
ATTTCCTC | -0.172
AAAGGGAG | -0.123
AGGACCCC | -0.0221
CGTGCGGC | 0.386
ACTACTGA | -0.0628
AATTCTAT | -0.236
AACACGGG | 0.24
CCTCATGC | -0.0978
ACCTTAGT | -0.116
GGACGCTA | 0.172
AATGTGCT | 0.059
AAAACACG | 0.136
AAGAGATG | -0.285
TCGACTCA | -0.25
AACGGGAA | 0.204
ATTAAGCG | 0.14

Study 4 — technique: protein-binding microarray; molecule type: double-stranded DNA, one strand shown; matrix: in vitro; tested at: 2540 nM top; notes: 60-bp whole probe; together with: salmon DNA 0.4 mg/ml; reference: random background probes; reading: higher = stronger binding; constant ends, left off below: GCCTAGCAC … GTCTTGATTCGCTTGACGCTGCTG
Target: Interferon regulatory factor 3, full length, phosphomimetic (IRF3, Homo sapiens, UniProt Q14653, residues 1-427, S386D/S396D/S398D/S402D/T404D/S405D)
Residues (chain): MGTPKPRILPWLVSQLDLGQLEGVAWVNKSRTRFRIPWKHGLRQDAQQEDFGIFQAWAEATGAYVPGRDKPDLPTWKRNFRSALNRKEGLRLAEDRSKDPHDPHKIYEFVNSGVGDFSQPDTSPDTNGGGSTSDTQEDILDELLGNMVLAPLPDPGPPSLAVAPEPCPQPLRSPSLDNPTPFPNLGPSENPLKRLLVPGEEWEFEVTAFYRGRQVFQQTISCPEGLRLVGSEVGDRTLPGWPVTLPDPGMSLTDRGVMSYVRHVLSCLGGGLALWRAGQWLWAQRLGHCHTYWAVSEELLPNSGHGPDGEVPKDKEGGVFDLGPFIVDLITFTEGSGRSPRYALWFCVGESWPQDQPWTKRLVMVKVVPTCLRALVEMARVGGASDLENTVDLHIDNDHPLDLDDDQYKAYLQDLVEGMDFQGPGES
Oligonucleotide | fitted relative affinity
GGCGATATCGGGTATCGAGACGTGCTA | -0.0723 z-score
TCAGCTCACGCTTTGGAACTGTGCTAG | -0.39 z-score
GACGAACTGGGGACTGGAGCCGTGCTA | -0.706 z-score
GACGGTAACGGGTATCGGGACGTGCTA | -0.124 z-score
AACGGACTGGACTTTCGGGACGTGCTA | 0.0614 z-score
TTGGGTTTCCTTTTCCTTTAGTGCTAG | 10.5 z-score
TCATTTTTCCGAGTGAGACTGTGCTAG | 1.92 z-score
TTAGGACTGGACACTGGGATAGTGCTA | -0.629 z-score
TTAGAACTGGGTCTCGATTAGTGCTAG | -0.628 z-score
GACGATTCCAGGTTCGAGACGTGCTAG | 0.665 z-score
CAGGGTTTCACTTTAAATTAGTGCTAG | 4.63 z-score
TTAGGGCTGCTACTGCTTTAGTGCTAG | -1.24 z-score
TTAGGTTTCGTCTTTCGGTTAGTGCTA | 3.85 z-score
GACGGACTGGGTCTCGGGATGTGCTAG | -0.872 z-score
TTAGGACTGCTTTTTCTTTAGTGCTAG | 0.18 z-score
GACGGTTTCGATTCCGGGACGTGCTAG | 8.22 z-score
TTAGGCCTCCTTCTCCTTTAGTGCTAG | 0.988 z-score
TTAGATTTCAGTATCGAATAGTGCTAG | 2.4 z-score
TTTGCTTTCCTTCTTGAACTGTGCTAG | 8.33 z-score
TGAGGTATCGACACTGGGTTAGTGCTA | -0.19 z-score
TCATCTCTGGTTCTTGCACTGTGCTAG | 0.627 z-score
TTAGATTTCGGGTATCGATCAGTGCTA | 1.36 z-score
TTAGGTTTCGACGATCGGTTAGTGCTA | 1.26 z-score
TTAGATATCACTATCGATTAGTGCTAG | 1.41 z-score
TTAGTACTGGGGTTTCGGTTAGTGCTA | 2.56 z-score

Some of these lines once more (study 3):
Oligonucleotide | E-score
AGGCTTTG | -0.085
ACTACTGA | -0.0628
ACCTTAGT | -0.116
ATTAAGCG | 0.14
CAAAGTAG | -0.256
ATCCCTCA | -0.0317
AACGGGAA | 0.204
GGACGCTA | 0.172
AACACGGG | 0.24
CGTGCGGC | 0.386
CCTCATGC | -0.0978
CCTGAAAA | 0.000715
